{"data": "Experimental data from different studies", "note": "Every numbered part comes from another study and shows a few of its results, in no order.", "chain of UniProt Q9BYP7 (whole entry, looked up)": "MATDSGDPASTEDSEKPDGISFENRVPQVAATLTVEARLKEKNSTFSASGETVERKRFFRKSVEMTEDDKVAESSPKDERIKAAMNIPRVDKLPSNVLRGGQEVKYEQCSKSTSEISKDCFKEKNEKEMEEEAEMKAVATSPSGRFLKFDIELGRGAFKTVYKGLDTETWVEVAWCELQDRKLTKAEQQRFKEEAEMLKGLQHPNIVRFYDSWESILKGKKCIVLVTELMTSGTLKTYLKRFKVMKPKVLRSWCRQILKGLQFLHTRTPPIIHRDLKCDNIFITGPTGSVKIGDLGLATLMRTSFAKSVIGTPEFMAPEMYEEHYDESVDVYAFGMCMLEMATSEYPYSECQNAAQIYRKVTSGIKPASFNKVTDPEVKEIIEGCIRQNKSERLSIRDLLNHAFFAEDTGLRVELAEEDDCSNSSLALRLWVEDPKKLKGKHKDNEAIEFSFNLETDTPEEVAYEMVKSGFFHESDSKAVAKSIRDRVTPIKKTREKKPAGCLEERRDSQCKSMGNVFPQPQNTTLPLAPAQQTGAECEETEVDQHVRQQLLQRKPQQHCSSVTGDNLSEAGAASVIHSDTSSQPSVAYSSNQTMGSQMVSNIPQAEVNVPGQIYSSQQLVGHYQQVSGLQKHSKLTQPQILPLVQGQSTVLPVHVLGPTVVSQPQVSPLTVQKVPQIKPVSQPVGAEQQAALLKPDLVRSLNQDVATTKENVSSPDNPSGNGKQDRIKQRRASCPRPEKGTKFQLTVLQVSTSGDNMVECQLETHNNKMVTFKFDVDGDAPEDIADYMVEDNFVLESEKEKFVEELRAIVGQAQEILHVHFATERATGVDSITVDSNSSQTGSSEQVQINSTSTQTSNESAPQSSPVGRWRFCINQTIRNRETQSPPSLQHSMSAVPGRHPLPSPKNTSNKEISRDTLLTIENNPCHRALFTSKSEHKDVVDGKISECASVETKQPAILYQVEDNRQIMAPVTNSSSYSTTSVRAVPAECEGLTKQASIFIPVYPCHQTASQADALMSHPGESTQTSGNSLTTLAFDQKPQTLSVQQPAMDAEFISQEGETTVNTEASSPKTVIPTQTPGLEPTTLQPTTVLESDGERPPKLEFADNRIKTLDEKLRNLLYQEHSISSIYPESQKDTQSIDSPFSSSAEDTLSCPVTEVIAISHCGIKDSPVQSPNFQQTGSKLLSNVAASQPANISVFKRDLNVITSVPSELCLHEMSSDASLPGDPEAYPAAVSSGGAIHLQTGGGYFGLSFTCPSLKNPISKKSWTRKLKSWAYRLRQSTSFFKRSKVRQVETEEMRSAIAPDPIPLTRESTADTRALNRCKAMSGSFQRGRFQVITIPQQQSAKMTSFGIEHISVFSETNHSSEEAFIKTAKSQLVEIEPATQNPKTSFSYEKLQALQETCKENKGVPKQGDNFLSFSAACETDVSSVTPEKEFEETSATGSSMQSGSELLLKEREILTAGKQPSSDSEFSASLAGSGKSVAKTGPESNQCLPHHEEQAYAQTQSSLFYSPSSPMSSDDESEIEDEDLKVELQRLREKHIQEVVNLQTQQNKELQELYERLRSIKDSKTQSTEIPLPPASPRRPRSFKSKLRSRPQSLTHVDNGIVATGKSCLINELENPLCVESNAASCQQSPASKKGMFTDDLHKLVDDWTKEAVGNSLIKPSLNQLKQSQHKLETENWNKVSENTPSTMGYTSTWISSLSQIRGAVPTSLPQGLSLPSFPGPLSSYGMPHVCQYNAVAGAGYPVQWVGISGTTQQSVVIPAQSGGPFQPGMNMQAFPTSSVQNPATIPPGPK", "chain of UniProt Q15375 (whole entry, looked up)": "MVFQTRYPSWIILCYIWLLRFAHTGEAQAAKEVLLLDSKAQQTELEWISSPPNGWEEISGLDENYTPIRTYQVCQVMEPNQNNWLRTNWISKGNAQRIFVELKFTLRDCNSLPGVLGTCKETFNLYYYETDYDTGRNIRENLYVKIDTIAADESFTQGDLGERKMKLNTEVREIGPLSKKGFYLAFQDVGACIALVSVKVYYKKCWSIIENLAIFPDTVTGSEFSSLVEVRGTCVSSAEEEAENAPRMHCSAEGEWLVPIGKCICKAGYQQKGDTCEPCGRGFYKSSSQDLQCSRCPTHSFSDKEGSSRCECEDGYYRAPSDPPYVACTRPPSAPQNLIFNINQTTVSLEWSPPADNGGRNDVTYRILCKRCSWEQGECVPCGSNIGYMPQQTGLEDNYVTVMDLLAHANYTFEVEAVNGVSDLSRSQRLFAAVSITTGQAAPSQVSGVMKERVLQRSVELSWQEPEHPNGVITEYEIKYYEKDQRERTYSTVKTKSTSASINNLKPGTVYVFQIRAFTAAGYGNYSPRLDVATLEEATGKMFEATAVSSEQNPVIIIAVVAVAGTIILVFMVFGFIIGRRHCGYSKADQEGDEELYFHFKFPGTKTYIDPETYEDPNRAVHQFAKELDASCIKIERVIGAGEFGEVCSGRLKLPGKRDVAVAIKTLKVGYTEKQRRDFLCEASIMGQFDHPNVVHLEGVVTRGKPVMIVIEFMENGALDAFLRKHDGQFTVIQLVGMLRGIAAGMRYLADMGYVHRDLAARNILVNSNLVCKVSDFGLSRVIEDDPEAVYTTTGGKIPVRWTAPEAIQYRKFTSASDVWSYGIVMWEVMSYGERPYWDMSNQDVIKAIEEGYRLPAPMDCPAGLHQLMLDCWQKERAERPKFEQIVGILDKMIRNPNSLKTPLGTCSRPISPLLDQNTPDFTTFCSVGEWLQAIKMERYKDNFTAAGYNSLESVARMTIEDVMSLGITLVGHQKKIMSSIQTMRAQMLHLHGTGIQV", "chain of UniProt P29322 (whole entry, looked up)": "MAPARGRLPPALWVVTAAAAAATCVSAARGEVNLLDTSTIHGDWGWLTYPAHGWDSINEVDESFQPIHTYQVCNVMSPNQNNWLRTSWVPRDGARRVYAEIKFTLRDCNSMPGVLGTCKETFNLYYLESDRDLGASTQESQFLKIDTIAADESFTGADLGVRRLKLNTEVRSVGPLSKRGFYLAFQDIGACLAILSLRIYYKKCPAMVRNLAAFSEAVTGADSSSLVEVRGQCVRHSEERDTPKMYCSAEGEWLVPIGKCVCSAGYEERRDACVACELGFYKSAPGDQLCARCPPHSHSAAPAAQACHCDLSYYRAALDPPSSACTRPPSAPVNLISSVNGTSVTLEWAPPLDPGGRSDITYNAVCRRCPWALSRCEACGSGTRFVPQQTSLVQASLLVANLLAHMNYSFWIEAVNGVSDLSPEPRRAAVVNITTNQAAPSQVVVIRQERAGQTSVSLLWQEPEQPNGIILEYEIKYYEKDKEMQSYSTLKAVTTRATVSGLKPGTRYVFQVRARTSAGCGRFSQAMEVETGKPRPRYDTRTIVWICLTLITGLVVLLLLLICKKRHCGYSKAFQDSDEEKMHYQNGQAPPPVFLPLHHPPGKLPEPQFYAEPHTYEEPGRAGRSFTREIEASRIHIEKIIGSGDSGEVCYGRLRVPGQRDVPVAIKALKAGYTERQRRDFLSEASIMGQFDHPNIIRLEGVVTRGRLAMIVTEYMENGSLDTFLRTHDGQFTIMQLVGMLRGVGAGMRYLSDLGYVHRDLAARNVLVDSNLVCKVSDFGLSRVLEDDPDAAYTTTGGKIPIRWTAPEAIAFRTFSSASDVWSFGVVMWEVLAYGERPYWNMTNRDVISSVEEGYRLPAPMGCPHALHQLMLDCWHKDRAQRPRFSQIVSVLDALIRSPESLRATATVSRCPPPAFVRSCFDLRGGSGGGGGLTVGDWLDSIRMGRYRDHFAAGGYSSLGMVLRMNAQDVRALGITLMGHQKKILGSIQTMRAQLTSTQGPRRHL", "chain of UniProt Q02750 (whole entry, looked up)": "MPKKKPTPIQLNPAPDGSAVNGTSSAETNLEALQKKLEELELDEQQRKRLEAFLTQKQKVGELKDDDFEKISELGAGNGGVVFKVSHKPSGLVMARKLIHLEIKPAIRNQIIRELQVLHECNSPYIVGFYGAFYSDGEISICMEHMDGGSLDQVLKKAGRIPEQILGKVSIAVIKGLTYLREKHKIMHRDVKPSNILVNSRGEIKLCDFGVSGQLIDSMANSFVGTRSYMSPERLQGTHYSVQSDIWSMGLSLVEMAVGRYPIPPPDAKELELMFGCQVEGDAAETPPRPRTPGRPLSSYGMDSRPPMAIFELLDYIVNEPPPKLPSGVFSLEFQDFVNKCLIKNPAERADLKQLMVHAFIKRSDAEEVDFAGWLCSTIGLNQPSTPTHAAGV"}
{"data": "Sample 1", "target": "Tyrosine-protein kinase Fes/Fps (FES, Homo sapiens, UniProt P07332)", "read-out": "enzyme activity", "action": "inhibitor", "tested at": "0.5 µM", "reference": "control", "chain of UniProt P07332 (whole entry, looked up)": "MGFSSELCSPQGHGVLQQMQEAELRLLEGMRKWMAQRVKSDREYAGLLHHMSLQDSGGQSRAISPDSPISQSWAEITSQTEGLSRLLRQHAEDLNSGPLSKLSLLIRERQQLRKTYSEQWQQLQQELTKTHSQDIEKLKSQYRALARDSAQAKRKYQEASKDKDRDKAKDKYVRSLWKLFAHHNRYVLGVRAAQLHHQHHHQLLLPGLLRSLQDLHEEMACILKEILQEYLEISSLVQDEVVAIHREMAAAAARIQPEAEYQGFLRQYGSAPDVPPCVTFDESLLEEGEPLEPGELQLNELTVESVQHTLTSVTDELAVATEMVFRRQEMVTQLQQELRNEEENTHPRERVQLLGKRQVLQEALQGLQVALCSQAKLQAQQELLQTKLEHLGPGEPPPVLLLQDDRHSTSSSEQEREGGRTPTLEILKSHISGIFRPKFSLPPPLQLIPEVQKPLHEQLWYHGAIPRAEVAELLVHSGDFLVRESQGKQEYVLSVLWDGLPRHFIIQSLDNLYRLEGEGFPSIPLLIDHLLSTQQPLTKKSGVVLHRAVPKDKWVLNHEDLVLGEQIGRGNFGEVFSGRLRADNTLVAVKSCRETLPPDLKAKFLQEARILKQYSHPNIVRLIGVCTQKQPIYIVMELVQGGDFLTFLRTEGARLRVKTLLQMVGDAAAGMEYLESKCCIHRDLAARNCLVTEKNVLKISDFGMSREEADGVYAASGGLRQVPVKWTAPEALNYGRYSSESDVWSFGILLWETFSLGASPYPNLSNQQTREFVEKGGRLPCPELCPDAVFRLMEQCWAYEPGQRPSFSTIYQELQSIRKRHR"}
{"SMILES": "COc1ccc(CNC(=O)Nc2ncc([N+](=O)[O-])s2)cc1", "remaining activity [%]": 97.7}
{"SMILES": "Oc1ccc(-c2nc(-c3ccncc3)c(-c3ccc(F)cc3)[nH]2)cc1", "remaining activity [%]": 101}
{"SMILES": "Cn1c2ccccc2c2c3c(c4c5ccccc5n(CCC#N)c4c21)CNC3=O", "remaining activity [%]": 78.4}
{"SMILES": "C#Cc1cccc(Nc2ncnc3cc(OCCOC)c(OCCOC)cc23)c1", "remaining activity [%]": 105}
{"SMILES": "O=C1NC(=O)C(c2cn(CCCO)c3ncccc23)=C1c1cnccn1", "remaining activity [%]": 121}
{"SMILES": "Cc1ccc(NC(=O)c2ccc(CN3CCN(C)CC3)cc2)cc1Nc1nc(-c2cccnc2)cs1", "remaining activity [%]": 105}
{"SMILES": "O=S(=O)(c1cccc2cnccc12)N1CCCNCC1", "remaining activity [%]": 121}
{"SMILES": "Cn1sc(=O)n(Cc2ccccc2)c1=O", "remaining activity [%]": 101}
{"SMILES": "N#CC(C#N)=C(N)/C(C#N)=C/c1ccc(O)cc1", "remaining activity [%]": 101}
{"SMILES": "O=C(Nc1cccc(Nc2cc(Nc3cccc(C(F)(F)F)c3)ncn2)c1)C1CC1", "remaining activity [%]": 101}
{"SMILES": "COc1ccc(C(=O)Nc2sc3c(c2C(N)=O)CCCC3)cc1OC", "remaining activity [%]": 102}
{"SMILES": "Nc1ncnc2n[nH]c(Nc3ccc(F)cc3)c12", "remaining activity [%]": 100}
{"SMILES": "COc1cc2nccc(Oc3ccc(NC(=S)NC(=O)c4ccccc4C)cc3)c2cc1OC", "remaining activity [%]": 96.7}
{"SMILES": "Nc1[nH]nc2nc3ccccc3nc12", "remaining activity [%]": 96.8}
{"data": "Sample 2", "SMILES": "CN([C@@H]1CCc2c(CC(=O)O)c3ccccc3n2C1)S(=O)(=O)c1ccc(F)cc1", "read-out": "cell-free assay", "technique": "competition with immobilised ligand", "tested at": "1 µM"}
{"target": "MAP3K15 (Homo sapiens, UniProt Q6ZN16)", "remaining binding": "100%"}
{"target": "EGFR (Homo sapiens, UniProt P00533, L858R)", "remaining binding": "93%"}
{"target": "EPHA8 (Homo sapiens, UniProt P29322)", "remaining binding": "100%"}
{"target": "EPHA7 (Homo sapiens, UniProt Q15375)", "remaining binding": "100%"}
{"target": "WNK3 (Homo sapiens, UniProt Q9BYP7)", "remaining binding": "86%"}
{"target": "MAP2K1 (Homo sapiens, UniProt Q02750)", "remaining binding": "100%"}
{"target": "FGFR1 (Homo sapiens, UniProt P11362)", "remaining binding": "100%"}
{"data": "Sample 3", "cell line": "mouse MPNST tumor cells", "technique": "high-content immunofluorescence imaging", "item": "nuclear SOX9", "tested at": "10 µM", "time": "12 h", "setting": "mean of 2 replicates", "reference": "DMSO control", "reading": "higher = more nuclear SOX9"}
{"SMILES": "COc1cc([S+](C)[O-])ccc1-c1nc2cccnc2[nH]1 (stereo not drawn)", "nuclear SOX9 intensity": "105 % of DMSO"}
{"SMILES": "C=C[C@@]1(C)CC(=O)[C@]2(O)[C@@]3(C)[C@@H](O)CCC(C)(C)[C@@H]3[C@H](O)[C@H](OC(C)=O)[C@@]2(C)O1", "nuclear SOX9 intensity": "88.3 % of DMSO"}
{"SMILES": "CN1CCN(C(c2ccccc2)c2ccc(Cl)cc2)CC1 (stereo not drawn)", "nuclear SOX9 intensity": "215 % of DMSO"}
{"SMILES": "COc1ccc(N(C)c2nc(C)nc3ccccc23)cc1", "nuclear SOX9 intensity": "225 % of DMSO"}
{"SMILES": "NS(=O)(=O)c1cc2c(cc1Cl)NCNS2(=O)=O", "nuclear SOX9 intensity": "109 % of DMSO"}
{"SMILES": "COC1CCC(C(=O)c2ccc3nc4c(cc3c2)CCCO4)CC1 (stereo not drawn)", "nuclear SOX9 intensity": "101 % of DMSO"}
{"SMILES": "CCCCc1cc2ccccc2c(OCCN(C)C)n1", "nuclear SOX9 intensity": "143 % of DMSO"}
{"SMILES": "COC1=CC(=O)C[C@@H](C)[C@]12Oc1c(Cl)c(OC)cc(OC)c1C2=O", "nuclear SOX9 intensity": "107 % of DMSO"}
{"data": "Sample 4", "read-out": "AlphaScreen signal", "technique": "AlphaScreen counter screen", "matrix": "His6 peptide without bromodomain", "tested at": "50 µM", "setting": "assay interference check"}
{"SMILES": "CN(C)c1ccc(/C=C2\\C(=O)Nc3ccccc32)cc1", "inhibition [%]": 83.1}
{"SMILES": "COc1ccc(-c2nnc3ccc(SC(C(C)=O)C(C)=O)nn23)cc1OC", "inhibition [%]": -1.1}
{"SMILES": "Cc1ccc(Nc2nccc(N(C)c3ccc4c(C)n(C)nc4c3)n2)cc1S(N)(=O)=O", "inhibition [%]": 32.1}
{"SMILES": "O=C(CSc1ccc2nnc(-c3cccc(F)c3)n2n1)N1CCCC1", "inhibition [%]": 17.6}
{"SMILES": "O=[N+]([O-])c1cnc(Nc2cccc(Cl)c2)nc1Nc1cccc(Cl)c1", "inhibition [%]": 29.4}
{"SMILES": "Nc1n[nH]c2nc3ccccc3nc12", "inhibition [%]": 7.65}
{"SMILES": "Cl.Oc1ccc(-c2nc(-c3ccc(F)cc3)c(-c3ccncc3)[nH]2)cc1", "inhibition [%]": 48.5}
{"note": "Repeated from above (sample 1):"}
{"SMILES": "C#Cc1cccc(Nc2ncnc3cc(OCCOC)c(OCCOC)cc23)c1", "remaining activity [%]": 105}
{"SMILES": "O=C1NC(=O)C(c2cn(CCCO)c3ncccc23)=C1c1cnccn1", "remaining activity [%]": 121}
{"SMILES": "Cc1ccc(NC(=O)c2ccc(CN3CCN(C)CC3)cc2)cc1Nc1nc(-c2cccnc2)cs1", "remaining activity [%]": 105}
{"SMILES": "O=S(=O)(c1cccc2cnccc12)N1CCCNCC1", "remaining activity [%]": 121}
{"SMILES": "Cn1sc(=O)n(Cc2ccccc2)c1=O", "remaining activity [%]": 101}
